# Measurements pooled from the literature.
# Each line is one published result; not all experiments were run side by side. Numbers after ± are the reported error.
# OPRM1: Mu-type opioid receptor (OPRM1, Homo sapiens, UniProt P35372)
# Sequence of UniProt P35372 (whole entry, looked up): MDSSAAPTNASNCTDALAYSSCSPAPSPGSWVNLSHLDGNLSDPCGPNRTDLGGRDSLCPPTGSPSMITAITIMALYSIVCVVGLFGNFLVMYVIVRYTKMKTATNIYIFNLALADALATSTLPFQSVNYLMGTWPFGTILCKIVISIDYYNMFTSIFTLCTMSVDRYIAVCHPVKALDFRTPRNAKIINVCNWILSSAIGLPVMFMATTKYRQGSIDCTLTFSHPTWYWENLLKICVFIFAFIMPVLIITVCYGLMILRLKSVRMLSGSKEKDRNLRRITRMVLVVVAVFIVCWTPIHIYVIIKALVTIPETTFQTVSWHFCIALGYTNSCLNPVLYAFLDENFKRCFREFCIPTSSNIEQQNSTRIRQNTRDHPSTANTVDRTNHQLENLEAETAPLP
# Spike glycoprotein: Spike glycoprotein (Severe acute respiratory syndrome coronavirus 2, UniProt P0DTC2)
# Spike glycoprotein RBD: Spike glycoprotein, RBD (Severe acute respiratory syndrome coronavirus 2, UniProt P0DTC2)
Structure (SMILES),tested on,test,test system,setting,endpoint,result
CC(C)C[C@H](NC(=O)[C@H](CO[C@@H]1O[C@H](CO)[C@@H](O[C@@H]2O[C@H](CO)[C@H](O)[C@H](O)[C@H]2O)[C@H](O)[C@H]1O)NC(=O)[C@H](CCCCN)NC(=O)[C@H](CC(C)C)NC(=O)[C@H](C)NC(=O)[C@H](CCCCN)NC(=O)[C@H](CCC(=O)O)NC(=O)[C@H](C)NC(=O)[C@H](CC(C)C)NC(=O)[C@H](CC(N)=O)NC(=O)[C@@H]1CCCN1C(=O)[C@H](CC(C)C)NC(=O)[C@H](Cc1ccccc1)NC(=O)CNC(=O)[C@H](NC(=O)[C@@H](N)Cc1ccc(O)cc1)[C@H](C)O)C(N)=O,OPRM1,radioligand displacement,CHO membranes,"60 min, pH 7.5, 25 °C, together with: 0.25 nM [3H]DAMGO",Ki,11 ± 1.4 nM
CC(C)C[C@H](NC(=O)[C@H](CC(=O)O)NC(=O)[C@H](CCC(=O)O)NC(=O)[C@H](C)NC(=O)[C@H](CCC(=O)O)NC(=O)[C@H](Cc1c[nH]cn1)NC(=O)[C@H](CC(N)=O)NC(=O)[C@H](Cc1ccccc1)NC(=O)[C@H](Cc1ccccc1)NC(=O)[C@H](CC(=O)O)NC(=O)[C@H](CC(C)C)NC(=O)[C@H](Cc1ccccc1)NC(=O)[C@@H](N)[C@@H](C)O)C(=O)N[C@@H](Cc1ccccc1)C(=O)N[C@@H](Cc1ccc(O)cc1)C(=O)N[C@@H](CSCc1ccc(S(=O)(=O)F)cc1)C(=O)O,"Spike glycoprotein, Omicron BA.2 RBD; ACE2 (Severe acute respiratory syndrome coronavirus 2, UniProt P0DTC2)",RBD binding to human ACE2,,"400 nM, SARS-CoV-2 Omicron BA.2 RBD",inhibition,~100%
CNC(C)C1C(O)CC2(C)C3CCC4C(C)(C)C(NC)CCC45CC35CCC12C (stereo not shown),Spike glycoprotein,"binding, BLI",,,koff,0.03 s⁻¹
CC(C)C[C@H](NC(=O)CNC(=O)[C@H](Cc1ccccc1)NC(=O)[C@@H](NC(=O)[C@@H](N)[C@@H](C)O)C(C)C)C(=O)N[C@@H](CC(N)=O)C(=O)N[C@H](C(=O)N[C@@H](Cc1c[nH]c2ccccc12)C(=O)N[C@@H](CCCCN)C(=O)N[C@@H](CCCNC(=N)N)C(=O)N[C@@H](Cc1ccc(O)cc1)C(=O)N[C@@H](CO)C(=O)N[C@@H](CCCCN)C(=O)NCC(=O)N[C@@H](CCCCNc1ccc([N+](=O)[O-])cc1[N+](=O)[O-])C(N)=O)C(C)C,Spike glycoprotein RBD,binding,,,koff,0.00355 to 0.00371 s⁻¹
C=Cc1c(C)c2cc3nc(cc4[nH]c(cc5nc(cc1[nH]2)C(C)=C5CCC(=O)O)c(CCC(=O)OC)c4C)C1(C)C3=CC=C(C(=O)OC)C1C(=O)OC (stereo not shown),"Spike glycoprotein, with TMPRSS2 (Severe acute respiratory syndrome coronavirus 2, UniProt P0DTC2)",NanoBiT reporter,,concentration not given,inhibition,inhibited
O=C(C=Cc1ccc(O)c(O)c1)OC1CC(O)(C(=O)O)CC(OC(=O)C=Cc2ccc(O)c(O)c2)C1O (stereo not shown),Spike glycoprotein,binding,,,koff,0.0164 s⁻¹
CC[C@H](C)[C@H](NC(=O)[C@H](CCCCNC(=O)CN(CCNC(=O)CN(CCNC(=O)CN(CCNC(=O)CN(CCNC(=O)[C@H](CCCNC(=N)N)NC(C)=O)C(=O)Cn1ccc(N)nc1=O)C(=O)Cn1cnc2c(=O)[nH]c(N)nc21)C(=O)Cn1cnc2c(=O)[nH]c(N)nc21)C(=O)Cn1ccc(N)nc1=O)NC(=O)[C@H](CC(=O)O)NC(=O)[C@H](CO)NC(=O)[C@@H](NC(=O)[C@H](CCCNC(=N)N)NC(=O)[C@H](CCSC)NC(=O)[C@H](CO)NC(=O)[C@H](C)NC(=O)[C@H](CCC(=O)O)NC(=O)[C@H](C)NC(=O)[C@H](Cc1c[nH]cn1)NC(=O)CNC(=O)[C@H](CC(C)C)NC(=O)[C@H](CCC(=O)O)NC(=O)[C@H](CC(=O)O)NC(=O)[C@H](CC(C)C)NC(=O)[C@H](CC(C)C)NC(=O)[C@H](CCCNC(=N)N)NC(=O)[C@H](CCSC)NC(=O)[C@H](CCCC(=O)NCCN(CC(=O)NCCN(CC(=O)NCCN(CC(=O)NCCN(CC(=O)N[C@@H](CCCNC(=N)N)C(N)=O)C(=O)Cn1cnc2c(=O)[nH]c(N)nc21)C(=O)Cn1ccc(N)nc1=O)C(=O)Cn1ccc(N)nc1=O)C(=O)Cn1cnc2c(=O)[nH]c(N)nc21)NC(=O)[C@H](CCC(=O)O)NC(=O)[C@H](Cc1ccc(O)cc1)NC(=O)[C@@H](NC(=O)[C@H](CCCCN)NC(=O)[C@H](CCC(N)=O)NC(=O)[C@H](CC(C)C)NC(=O)[C@@H](NC(=O)[C@H](Cc1c[nH]c2ccccc12)NC(=O)[C@H](CCC(=O)O)NC(=O)[C@H](CCCCN)NC(=O)[C@H](CC(=O)O)NC(C)=O)[C@@H](C)CC)[C@@H](C)CC)C(C)C)C(=O)N[C@@H](Cc1ccc(O)cc1)C(=O)N[C@@H](CCC(=O)O)C(=O)N[C@@H](Cc1ccccc1)C(=O)N[C@@H](CCSC)C(=O)N[C@@H](CCCCN)C(=O)N[C@@H](CCCCN)C(N)=O,Spike glycoprotein,"binding, SPR",,,kon,1.9e+06 M⁻¹ s⁻¹
O=c1c(OP(=O)(O)O)c(-c2ccc(OP(=O)(O)O)c(OP(=O)(O)O)c2)oc2cc(OP(=O)(O)O)cc(OP(=O)(O)O)c12,Spike glycoprotein,spike protein activity,SARS-CoV-2,concentration not given,inhibition,inhibited
CC[C@H](C)C(=O)N1CCC(NC(=O)Nc2ccc(OC(F)(F)F)c(F)c2)CC1,,,healthy volunteers,"oral, 2 mg single dose",subjects with COVID-19 TEAE,0%
CCCCCCCCCCCCCCCC(=O)N[C@@H](CCC(=O)NCCOCCOCCC(=O)NCCOCCOCCC(=O)NCCCC[C@H](NC(=O)[C@H](CC(=O)O)NC(=O)[C@H](CC(C)C)NC(=O)[C@H](Cc1ccc(O)cc1)NC(=O)[C@H](CCCCN)NC(=O)[C@H](CO)NC(=O)[C@H](Cc1ccc(O)cc1)NC(=O)[C@H](CC(=O)O)NC(=O)[C@H](CO)NC(=O)[C@@H](NC(=O)[C@H](Cc1ccccc1)NC(=O)[C@@H](NC(=O)CNC(=O)[C@H](CCC(N)=O)NC(=O)[C@@H](CO)NC(=O)[C@@H](N)Cc1c[nH]cn1)[C@@H](C)O)[C@@H](C)O)C(=O)N[C@@H](CCCNC(=N)N)C(=O)N[C@@H](CCCNC(=N)N)C(=O)N[C@@H](C)C(=O)N[C@@H](CCC(N)=O)C(=O)N[C@@H](CC(=O)O)C(=O)N[C@@H](Cc1ccccc1)C(=O)N[C@H](C(=O)N[C@@H](CCC(N)=O)C(=O)N[C@@H](Cc1c[nH]c2ccccc12)C(=O)N[C@@H](CC(C)C)C(=O)N[C@@H](CC(C)C)C(=O)N[C@@H](CC(N)=O)C(=O)N[C@H](C(=O)NCC(=O)NCC(=O)N1CCC[C@H]1C(=O)N[C@@H](CO)C(=O)N[C@@H](CO)C(=O)NCC(=O)N[C@@H](C)C(=O)N1CCC[C@H]1C(=O)N1CCC[C@H]1C(=O)N1CCC[C@H]1C(=O)N[C@@H](CO)C(N)=O)[C@@H](C)O)C(C)C)C(=O)O,,,rhesus monkey,"subcutaneous, 20 µg/kg, single dose",Tmax,1.83 ± 0.408 h
CC(C)C[C@@H]1NC(=O)[C@H](CC(=O)O)NC(=O)[C@H](CCC(=O)O)NC(=O)[C@@H](NC(=O)[C@H](CCC(=O)O)NC(=O)[C@@H](N)Cc2c[nH]cn2)Cc2cn(nn2)CCCC[C@@H](C(=O)N[C@@H](Cc2ccc(O)cc2)C(=O)N[C@@H](CCC(N)=O)C(N)=O)NC1=O,Spike glycoprotein RBD,,,30 µM,inhibition,30%
CCCCCCCCCCCCCCCc1cccc(O)c1C(=O)O,Spike glycoprotein,"binding, biolayer interferometry",,,koff,0.00104 s⁻¹
CC(C)C[C@H](NC(=O)[C@H](CO[C@@H]1O[C@H](CO)[C@@H](O)[C@H](O)[C@H]1O)NC(=O)[C@H](CCCCN)NC(=O)[C@H](CC(C)C)NC(=O)[C@H](C)NC(=O)[C@H](CCCCN)NC(=O)[C@H](CCC(=O)O)NC(=O)C(C)(C)NC(=O)[C@H](CC(C)C)NC(=O)[C@H](CC(N)=O)NC(=O)[C@@H]1CCCN1C(=O)[C@H](CC(C)C)NC(=O)[C@H](Cc1ccccc1)NC(=O)CNC(=O)[C@H](NC(=O)[C@@H](N)Cc1ccc(O)cc1)[C@H](C)O)C(N)=O,OPRM1,radioligand displacement,CHO membranes,"60 min, pH 7.5, 25 °C, together with: 0.25 nM [3H]DAMGO",Ki,6.1 ± 0.31 nM
CC(C)C[C@H](NC(=O)CNC(=O)[C@H](Cc1ccccc1)NC(=O)[C@@H](NC(=O)[C@@H](NC(=O)c1cccc(S(=O)(=O)F)c1)[C@@H](C)O)C(C)C)C(=O)N[C@@H](CC(N)=O)C(=O)N[C@H](C(=O)N[C@@H](Cc1c[nH]c2ccccc12)C(=O)N[C@@H](CCCCN)C(=O)N[C@@H](CCCNC(=N)N)C(=O)N[C@@H](Cc1ccc(O)cc1)C(=O)N[C@@H](CO)C(=O)N[C@@H](CCCCN)C(=O)NCC(=O)N[C@@H](CCCCNc1ccc([N+](=O)[O-])cc1[N+](=O)[O-])C(N)=O)C(C)C,Spike glycoprotein RBD,binding,,,kon,10300 to 11600 M⁻¹ s⁻¹
CC[C@H](C)[C@H](NC(=O)[C@H](CCCN)NC(=O)[C@H](CC(=O)O)NC(=O)[C@H](CC(C)C)NC(=O)C(C)(CC(C)C)NC(=O)[C@@H](NC(=O)[C@H](CO)NC(=O)[C@H](Cc1ccc(O)cc1)NC(=O)[C@H](CC(=O)O)NC(=O)[C@H](CO)NC(=O)[C@@H](NC(=O)[C@H](Cc1ccccc1)NC(=O)[C@@H](NC(=O)CNC(=O)[C@H](CCC(=O)O)NC(=O)C(C)(C)NC(=O)[C@@H](N)Cc1ccc(O)cc1)[C@@H](C)O)[C@@H](C)CC)[C@@H](C)CC)C(=O)N[C@@H](Cc1c[nH]cn1)C(=O)N[C@@H](CCC(N)=O)C(=O)NC(C)(C)C(=O)N[C@@H](CC(=O)O)C(=O)N[C@@H](Cc1ccccc1)C(=O)N[C@H](C(=O)N[C@@H](CCC(=O)O)C(=O)N[C@@H](Cc1ccc(O)cc1)C(=O)N[C@@H](CCCCNC(=O)COCCOCCNC(=O)COCCOCCNC(=O)CC[C@H](NC(=O)CCCCCCCCCCCCCCCCCCC(=O)O)C(=O)O)C(=O)N[C@@H](CC(C)C)C(=O)N[C@@H](CCC(=O)O)C(=O)NCC(=O)NCC(=O)N1CCC[C@H]1C(=O)N[C@@H](CO)C(=O)N[C@@H](CO)C(=O)NCC(=O)N[C@@H](C)C(=O)N1CCC[C@H]1C(=O)N1CCC[C@H]1C(=O)N1CCC[C@H]1C(=O)N[C@@H](CO)C(N)=O)C(C)C (stereo partly shown),,,"human, plasma","subcutaneous, 25 mg, single dose, healthy volunteers",CL/F,0.325 mL/min
Cc1cc(C)n(-c2nc(-c3ccccc3)cc(=O)n2CC(=O)Nc2cccc([N+](=O)[O-])c2)n1,"Spike glycoprotein, HR1/HR2 domains (Severe acute respiratory syndrome coronavirus 2, UniProt P0DTC2)","β-galactosidase reporter, inhibitor, yeast two-hybrid",yeast AH109,1/2 MIC,inhibition,> 50%
